Measured values pooled from the literature.
Protocols differ between the studies behind these lines. Numbers after ± are the reported error.
Cell line: MOLT-4

Compound | test | test system | conditions | how to read | quantity | result
CCn1cc(-c2cc(Cn3ccoc3=N)cc3c2CCN([C@@H](C)c2cc(OC)ccn2)C3=O)c(C(F)(F)F)n1 | cell growth, inhibitor |  | 120 h |  | EC50 | 3.05 µM
COc1ccccc1C(=O)c1cc2c(-c3ccccc3)c(OC)ccc2o1 | cell proliferation |  | 72 h |  | IC50 | > 50 µM
O=c1ccn(Cc2cn(-c3c4ccccc4nc4ccccc34)nn2)c(=O)[nH]1 | NCI60 single-dose screen |  | 10 µM |  | growth percentage | 79.5%
COc1ccc(/C=C\c2cc(OC)c(OC)c(OC)c2)cc1O | cell proliferation |  | 72 h |  | IC50 | 0.021 ± 0.0008 µM
CCCCN1CCN(c2ccc3[nH]c(-c4ccc5[nH]c(-c6ccc(C(F)(F)F)cc6)nc5c4)nc3c2)CC1 | SRB |  | 10 µM, 48 h |  | growth percent | -61%
COc1ccc(C(=O)c2cc3c(-c4ccccc4)c(O)ccc3o2)cc1 | cell proliferation |  | 72 h |  | IC50 | 0.69 ± 0.61 µM
O=C(Nc1nnc2n3c(=S)[nH][nH]c3nc(-c3ccc(Cl)cc3)c1-2)c1ccccc1 | SRB |  | 10 µM, NCI60 single-dose screen | relative to: untreated | cell growth | 101%
CCCCN1CCN(c2ccc3[nH]c(-c4ccc5[nH]c(-c6ccc(OCC)cc6)nc5c4)nc3c2)CC1 | SRB |  | 10 µM, 48 h |  | growth percent | 56.9%
C#C[C@@]1(O)[C@@H](CO)O[C@@H](n2cc(I)c3c(N)ncnc32)[C@@H]1O | SRB |  | NCI-60 screen |  | TGI | 0.831 µM
O=C1NCCc2[nH]c(-c3ccncc3)cc21 | cytotoxicity, MTS | NCI60 panel | acute lymphoblastic leukaemia |  | IC50 | 6.98 µM
O=C(Nc1nnc2n3c(nc(-c4ccc(Cl)cc4)c1-2)SCC3=O)c1ccccc1 | SRB |  | 10 µM, NCI60 single-dose screen | relative to: untreated | cell growth | 106%
CCCN1CCN(c2ccc3[nH]c(-c4ccc5[nH]c(-c6ccc(C(F)(F)F)cc6)nc5c4)nc3c2)CC1 | SRB |  | 10 µM, 48 h |  | growth percent | -38.6%
Cc1cc(-c2ccccc2)n(-c2nc(-c3ccc(Cl)cc3)c3c(NC(=O)c4ccccc4)nnc-3[nH]2)n1 | SRB |  | 10 µM, NCI60 single-dose screen | relative to: untreated | cell growth | 97.4%
Cn1cncc1C1=CN(c2ncnc3[nH]cnc23)CCS1 |  |  | leukemia |  | TGI | 93.3 µM
O=C1NC(c2ccccc2)(c2ccccc2)C(=O)N1Cc1cn(-c2c3ccccc3nc3ccccc23)nn1 | NCI60 single-dose screen |  | 10 µM |  | growth percentage | 53.5%
CN1CCN(c2ccc3[nH]c(-c4ccc5[nH]c(-c6ccc(C(F)(F)F)cc6)nc5c4)nc3c2)CC1 | SRB |  | 10 µM, 48 h |  | growth percent | 47.2%
Cc1cc(=O)[nH]n1-c1nc(-c2ccc(Cl)cc2)c2c(NC(=O)c3ccccc3)nnc-2[nH]1 | SRB |  | 10 µM, NCI60 single-dose screen | relative to: untreated | cell growth | 94.8%
Cc1cc(=O)[nH]c(=O)n1Cc1cn(-c2c3ccccc3nc3ccccc23)nn1 | NCI60 single-dose screen |  | 10 µM |  | growth percentage | 48.5%

For quick reference, copied from above:
Compound | test | test system | conditions | how to read | quantity | result
CCCCN1CCN(c2ccc3[nH]c(-c4ccc5[nH]c(-c6ccc(C(F)(F)F)cc6)nc5c4)nc3c2)CC1 | SRB |  | 10 µM, 48 h |  | growth percent | -61%
